# Values quoted from earlier work, collected from citations in different studies.
# Compare with care: the assays were run in different laboratories. ± gives the spread as reported.
# UniProt Q9BUB5, sequence (whole entry, looked up): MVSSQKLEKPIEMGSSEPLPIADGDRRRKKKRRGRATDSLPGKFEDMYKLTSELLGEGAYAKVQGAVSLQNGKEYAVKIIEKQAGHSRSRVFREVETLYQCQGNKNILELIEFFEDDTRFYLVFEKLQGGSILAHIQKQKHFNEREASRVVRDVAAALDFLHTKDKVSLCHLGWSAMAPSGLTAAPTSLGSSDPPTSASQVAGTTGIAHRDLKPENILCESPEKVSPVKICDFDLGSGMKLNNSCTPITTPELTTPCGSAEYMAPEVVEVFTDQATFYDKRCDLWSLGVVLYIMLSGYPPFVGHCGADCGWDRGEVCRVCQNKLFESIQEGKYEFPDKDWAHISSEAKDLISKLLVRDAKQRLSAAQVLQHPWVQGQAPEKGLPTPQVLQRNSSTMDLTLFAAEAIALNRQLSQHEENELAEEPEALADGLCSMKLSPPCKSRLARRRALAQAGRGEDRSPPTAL
Compound,tested on,test,system,conditions,scale,endpoint,value
Nc1cc(C(F)(F)F)c(-c2nc(N3CCOCC3)nc(N3CCOCC3)n2)cn1,"MKNK1 (Homo sapiens, UniProt Q9BUB5)",enzyme activity,,10 µM,baseline: untreated,remaining activity,100%
CC1(C)S[C@@H]2[C@H](NC(=O)[C@H](N)c3ccccc3)C(=O)N2[C@H]1C(=O)O,Enterobacter cloacae,,clinical isolate RKI-No_215/15,,,MIC,16 µg/mL
Cc1cc(=O)n(-c2ccccc2)n1C,,,rat,,,plasma clearance,5.1 mL/min/kg
Cn1cnc2c(F)c(Nc3ccc(Br)cc3Cl)c(C(=O)NOCCO)cc21,,,"healthy human volunteers, plasma","oral, 25 mg single dose, given alone",,"AUC, geometric mean",1180 ng·h/mL
CC(=O)N[C@@H]1CCC[C@H](C(=O)Nc2cc(-c3cnn4c3CC(C)(C)C4)c(Cl)cn2)C1,,,rat,,,half-life,10.8 min
CN(C)C(=O)c1cc2cnc(Nc3ccc(N4CCNCC4)cn3)nc2n1C1CCCC1,,item: nausea,advanced solid tumour or lymphoma patients,"dose not given, 3 weeks on 1 week off, any grade",baseline: patients,adverse event incidence,52.2%
Cn1c(=O)oc2ccc(-c3ccc(C[C@@H](C#N)NC(=O)[C@@H]4CNCCCO4)cc3)cc21,,,human,"10 mg, phase II",baseline: placebo,skin adverse event incidence,no effect
CN1CCN(c2cccc3c2CCN(C(=O)/C=C/c2c(-n4cnnn4)ccc(Cl)c2F)[C@@H]3C(=O)Nc2ccc(C(=O)O)cc2)C(=O)C1,,,"healthy human, infusion site pain","intravenous, dose not given",,adverse event incidence,5.9%
OC(Cn1cncn1)(Cn1cncn1)c1ccc(F)cc1F,,"perpetrator, item: (R)-warfarin",human,dose not given,baseline: without compound,AUC increase,107%
C[C@@H]1CCO[C@H]2Cn3cc(C(=O)NCc4ccc(F)cc4F)c(=O)c(O)c3C(=O)N12,,population PK,treatment-naive adult patients,dose not given,,apparent volume of distribution,17.4 L
N#C[C@@]1(c2ccc3c(N)ncnn23)O[C@H](CO)[C@@H](O)[C@H]1O,,,"dog, plasma","oral, 5 mg/kg, 4 h, solution",,plasma concentration,1330 ng/mL
CN1CCC(COc2cnc(-c3cccc(Cn4nc(-c5cccc(C#N)c5)ccc4=O)c3)nc2)CC1,,exposure-response analysis,human patients,dose not given,,median exposure,25.3 µg/mL
O=C(c1cc(Cc2n[nH]c(=O)c3ccccc23)ccc1F)N1CCN(C(=O)C2CC2)CC1,,,human,"300 mg single dose, tablet",,AUC(0-t),49400 ng·h/mL
O=C(c1cccnc1-c1ccncc1)N1CCC(O)(Cc2ccccc2)CC1,,,urine,"oral, 300 mg [14C]-labelled, single, time not given",,dose recovered,94.8%
c1ccc2c(c1)ccc1ccccc12,,,pooled human liver microsomes,2.5 µM,,metabolism rate,252 pmol/min/mg
Nc1nc(O)c2ncn(COC(CO)CO)c2n1,,,rat,,,oral bioavailability,3.6%
CNC(=O)c1c(C)oc2cc(Oc3ncnc4cc(OC)c(OC)cc34)ccc12,,,urine,"5 mg radiolabelled, time not given",,dose recovered,~60%
CC(C)[C@H](N)C(=O)OCC(CO)OCn1cnc2c(=O)[nH]c(N)nc21 (some centres unmarked),,,rat,100 mg/kg,,oral bioavailability,88%
O=C(c1cccnc1-c1ccncc1)N1CCC(O)(Cc2ccccc2)CC1,,,children with Dravet or Lennox-Gastaut syndrome,dose not given,,withdrawal due to TEAEs,5.6%
CC(F)(F)c1cc(F)ccc1-c1sc2cc(O)ccc2c1Oc1ccc(/C=C/C(=O)O)cc1,,,mouse,20 mg/kg once daily,,efficacious AUC,3510 ng·h/mL
Cc1cc(-c2nccc3c2ccn3CC(=O)Nc2ccc(-c3cnccn3)cn2)ccn1,,,rat,minimal to mild findings,,dose with bone changes,≥ 6 mg/kg/day
C#C[C@]1(OC(C)=O)CC[C@H]2[C@@H]3CCC4=CC(=NO)CC[C@@H]4[C@H]3CC[C@@]21CC (mixture of isomers),,,human,"0.25 mg single dose, fasted, reference formulation",,AUC(0-3 h),0.0637 ng·h/mL
CO[C@H]1C[C@@H]2CC[C@@H](C)[C@@](O)(O2)C(=O)C(=O)N2CCCC[C@H]2C(=O)O[C@H]([C@H](C)C[C@@H]2CC[C@@H](O)[C@H](OC)C2)CC(=O)[C@H](C)/C=C(\C)[C@@H](O)[C@@H](OC)C(=O)[C@H](C)C[C@H](C)/C=C/C=C/C=C/1C,,,human,,,renal clearance,0.018 L/h
CCN(CC)CCN(CCNCCc1ccc(O)c2[nH]c(=O)sc12)C(=O)CCOCCc1cccc2ccccc12,,,"human, plasma",inhaled,,Tlast,48 h
CN[C@@H](C)C(=O)N[C@H]1CN(S(=O)(=O)c2cccc(S(=O)(=O)N3CC[C@H]4CC[C@@H](C(=O)NC(c5ccccc5)c5ccccc5)N4C(=O)[C@@H](NC(=O)[C@H](C)NC)C3)c2)CC[C@H]2CC[C@@H](C(=O)NC(c3ccccc3)c3ccccc3)N2C1=O,,,advanced solid tumour patients,"dose not given, monotherapy",,TEAE nausea incidence,21.7%
C=CCCC(=O)O,,craniofacial deformation,zebrafish embryo,nominal concentration,,EC10,626 µM
Cc1cn([C@@H]2C[C@@H](O)[C@H](CO)O2)c(=O)[nH]c1=O,,,woodchuck,10 mg/kg,,oral bioavailability,39%
C[C@@H](Oc1cc(-c2cnn(C3CCNCC3)c2)cnc1N)c1c(Cl)ccc(F)c1Cl,,,patients,"dose not given, monotherapy",,cardiac event incidence,5%
CCN1CCN(Cc2ccc(Nc3ncc(F)c(-c4cc(F)c5nc(C)n(C(C)C)c5c4)n3)nc2)CC1,,,human,"150 mg twice daily, with endocrine therapy",,"Css,max",249 ng/mL
CS(=O)(=O)CCNCc1ccc(-c2ccc3ncnc(Nc4ccc(OCc5cccc(F)c5)c(Cl)c4)c3c2)o1,,,"human, plasma","1250 mg/day, 24 h post-dose",,steady-state Cmin,1000 ng/mL
N#CCNC(=O)c1ccc(-c2ccnc(Nc3ccc(N4CCOCC4)cc3)n2)cc1,,,patients with myelofibrosis,integrated phase III trials,,peripheral neuropathy incidence,14.8%
Oc1ccc(C(c2ccc(O)cc2)(C(F)(F)F)C(F)(F)F)cc1,,item: free (unconjugated) compound,"Sprague-Dawley rat, female","oral gavage, 110 mg/kg",,Cmax,729 nM
CCCCC(C)C(=O)O (centres unmarked),,scoliosis or lordosis,zebrafish embryo,nominal concentration,,EC10,383 µM
CC1(C)CCC(CN2CCN(c3ccc(C(=O)NS(=O)(=O)c4ccc(NCC5CCOCC5)c([N+](=O)[O-])c4)c(Oc4cnc5[nH]ccc5c4)c3)CC2)=C(c2ccc(Cl)cc2)C1,,,patients,dose not given,baseline: Asian over non-Asian,AUC increase at steady state,~67%
C=CC(=O)NC1CCN(c2ncc3ncnc(Nc4ccc(Oc5ccc6c(c5)ncn6C)c(C)c4)c3n2)CC1,,,human,"30 mg, mostly grade 1",,participants with TEAEs,61.5%
Cn1c(Cn2ccc(C(F)(F)F)c(Oc3cc(Cl)cc(C#N)c3)c2=O)n[nH]c1=O,,,human subjects,"dose not given, up to 48 weeks",,Cough incidence,5%
Nc1ccn([C@@H]2CS[C@H](CO)O2)c(=O)n1,,,rat,10 mg/kg,,oral bioavailability,80%
CCCCCC(CCC)C(=O)O (centres unmarked),,small eyes,zebrafish embryo,nominal concentration,,EC10,153 µM
O=C1Nc2c(C(F)(F)F)cccc2[C@@]1(c1ccc(O)cc1)c1ccc(OC(F)(F)F)cc1,,,dog,oral,,tolerated dose,> 150 mg/kg
CN(C)C(=N)N=C(N)N,,,patients with liver failure,,,rate constant k13,0.0874 min⁻¹
CS(=O)(=O)CCNCc1ccc(-c2ccc3ncnc(Nc4ccc(OCc5cccc(F)c5)c(Cl)c4)c3c2)o1,,,dog,dose not given,,volume of distribution,5.7 L/kg
CNC(C)C1CCC(N)C(OC2C(N)CC(N)C(OC3OCC(C)(O)C(NC)C3O)C2O)O1 (centres unmarked),,,human,,,renal clearance,0.686 mL/min/kg
Cc1c(C(=O)O)ccc2c3n(nc12)[C@@H]1[C@H](C3)N(CC2CC2)[C@@]2(C(=O)Nc3cc(Cl)ccc32)[C@H]1c1cccc(Cl)c1F,,,"FVB mice, brain, plasma",,,Kp,0.009
c1ccc2c(c1)ccc1ccccc12,,slow stirring,,,,logKow,4.62
Cc1cc(Nc2ccc(S(F)(F)(F)(F)F)cc2)n2ncnc2n1,,,mouse liver microsomes,,,intrinsic clearance,< 6 µL/min/mg
Cc1c(C(=O)O)ccc2c3n(nc12)[C@@H]1[C@H](C3)N(CC2CC2)[C@@]2(C(=O)Nc3cc(Cl)ccc32)[C@H]1c1cccc(Cl)c1F,,,human patients,"dose not given, phase I trial",baseline: patients,"neutropenia, grade ≥3, treatment related",24.1%
N=C(N)NCCC[C@H](NC(=O)[C@H](CCCNC(=N)N)NC(=O)[C@H](CCCCN)NC(=O)[C@H](CCC(N)=O)NC(=O)[C@H](CCCCN)NC(=O)[C@H](Cc1ccc(O)cc1)NC(=O)[C@@H](N)CCCCN)C(=O)N[C@@H](CO)C(=O)N[C@@H](Cc1ccc(O)cc1)C(=O)N[C@@H](CCCCN)C(=O)O,,,beagle dog,"intravenous, dose not given, repeated-dose toxicity",,NOAEL,1150 µg/kg/day
CO[C@@H](C)Cn1c(=O)n(C)c2cnc3ccc(-c4cncc(C(C)(C)O)c4)cc3c21,,,human,"200 mg twice daily, monotherapy, steady state, day 15",,AUC(0-tau),3280 ng·h/mL
CC(C)[C@@H](CS(=O)(=O)C(C)C)N1C(=O)[C@@](C)(CC(=O)O)C[C@H](c2cccc(Cl)c2)[C@H]1c1ccc(Cl)cc1,,,patients with solid tumours or lymphomas,"dose not given, grade ≥3, first-in-human trials",,patients with related neutropenia,21%
COc1cc2c(Oc3ccc4[nH]c(C)cc4c3F)ccnc2cc1OCC1(N)CC1,,,human,10 mg single dose,,AUC(0-t),385 ± 175 ng·h/mL
CCOC(=O)C1=C(C)NC(C)=C(C(=O)OC)C1c1cccc(Cl)c1Cl (centres unmarked),,,,,,logD,4.76
CNC(C)C1CCC(N)C(OC2C(N)CC(N)C(OC3OCC(C)(O)C(NC)C3O)C2O)O1 (centres unmarked),Enterobacter cloacae,,clinical isolate RKI-No_308/13,,,MIC,2 µg/mL
NC(=O)N1c2ccccc2C=Cc2ccccc21,,,mouse,"i.p., corneal kindling model",,protective index,7.7
Oc1c(Cl)cc(Cl)cc1Sc1cc(Cl)cc(Cl)c1O,,,human,oral,,maximum safe dose,25 mg/kg/day
COc1ccnc(C[S+]([O-])c2nc3ccc(OC(F)F)cc3[nH]2)c1OC (centres unmarked),,,obese children,dose not given,baseline: non-obese children,apparent clearance reduction,50%
O=C(O)CN1CCN(CC(=O)O)CCN(CC(=O)O)CCN(CC(=O)O)CC1,,"pH-potentiometry, item: logK3H",0.15 M NaClO4,25 °C,,protonation constant (log),4.51

# Some of these lines once more:
Compound,tested on,test,system,conditions,scale,endpoint,value
N#C[C@@]1(c2ccc3c(N)ncnn23)O[C@H](CO)[C@@H](O)[C@H]1O,,,"dog, plasma","oral, 5 mg/kg, 4 h, solution",,plasma concentration,1330 ng/mL
CC(C)[C@H](N)C(=O)OCC(CO)OCn1cnc2c(=O)[nH]c(N)nc21 (some centres unmarked),,,rat,100 mg/kg,,oral bioavailability,88%
CCCCCC(CCC)C(=O)O (centres unmarked),,small eyes,zebrafish embryo,nominal concentration,,EC10,153 µM
